# Measurements pooled from the literature.
# Compare with care: the assays were run in different laboratories. ± marks the error that the study gave.
SMILES,assay,system,setting,how to read,Cmax
Cc1cc(OCCOCCC(F)(F)P(=O)(O)O)ccc1CCc1cnc2c(N)nc3cc(CCC(=O)O)ccc3c2c1,,"human, serum","intratumoral, 200 µg every 2 weeks, cycle 1 day 1",,2 ng/mL
C[C@H]1[C@H](OC(=O)CCC(=O)O)O[C@@H]2O[C@@]3(C)CC[C@H]4[C@H](C)CC[C@@H]1[C@@]24OO3,,"human, both sexes, plasma","oral, dose not given, non-fixed combination",,295 ng/mL
O=C(O)CCCCCCCCCCCCCCC(=O)O,,"human, plasma","oral, dose not given",reference: untreated,306 ± 31 nM
Cn1cncc1-c1c(F)cncc1NC(=O)c1c(N)nn2cc(F)cnc12,,"human patients, plasma","oral, 90 mg, cycle 1 day 1",,~583 ng/mL
Nc1ccc(-c2nc([C@H]3CCc4cc(-c5cc(Cl)ccc5-n5cnnn5)cc(=O)n43)c(F)[nH]2)c(F)n1,,"human, plasma","oral, 80 mg once daily, day 14",,1040 ng/mL
Cc1noc(C)c1-c1cc(C(O)(c2ccccn2)c2ccccn2)c2nc(C3CC3)[nH]c2c1,,"human patients, fasted, plasma","oral, 6 mg once daily, cycle 1 day 15, with: enzalutamide once daily",,174 ng/mL
COc1cc([C@@H]2Oc3c(O)ccc([C@H]4Oc5cc(O)cc(O)c5C(=O)[C@@H]4O)c3[C@H]2CO)ccc1O,,"OATP1B1/1B3 humanized mice, plasma","oral gavage, 500 mg/kg silymarin",,70 nM
Cn1nnc2c(C(N)=O)ncn2c1=O,,"human patients, plasma","oral, 20 mg/m2, day 5, dose level DL2, median, with: talazoparib 400 µg/m2",,570 ng/mL
CCN1CCN(Cc2ccc(Nc3ncc(F)c(-c4cc(F)c5nc(C)n(C(C)C)c5c4)n3)nc2)CC1,,"fasted healthy human subjects, plasma","oral, 200 mg, capsule",,102 ng/mL
Fc1ccc([C@@H]2CCNC[C@H]2COc2ccc3c(c2)OCO3)cc1,,"human, CYP2D6 normal metabolizers","oral, 20 mg, steady state, geometric mean",,23 ng/mL
COc1cc(Nc2c(C#N)cnc3cc(OCCCN4CCN(C)CC4)c(OC)cc23)c(Cl)cc1Cl,,"human severe hepatic impairment, plasma","concentration not given, single dose geometric mean",,49 ng/mL
NC(=S)NN=Cc1ncccc1N,,"human, plasma","oral, 100 mg",,476 ng/mL
C[C@H]1CNCCCN1S(=O)(=O)c1cccc2cncc(F)c12,,"human, male, plasma","ocular instillation, 1 drop per eye twice daily, day 8",,0.609 ng/mL
Cl.O=C(NC1CCOCC1)c1csc([C@@H]2C[C@H]2NCC2CC2)c1,,"human, fed, plasma","oral, 30 mg single dose",,98.7 ng/mL
CC1=C(c2cccc(O)c2)[C@H](c2ccc(OCCN3CC(CF)C3)cc2)Oc2ccc(O)cc21,,"human, plasma","oral, 600 mg single dose, geometric mean",,58 ng/mL
NC1(C(=O)N[C@@H](CCO)c2ccc(Cl)cc2)CCN(c2ncnc3[nH]ccc23)CC1,,"human, plasma","640 mg twice daily, day 2, 2 days on, 5 days off",,2480 ng/mL
COc1ccc2nc([S@@+]([O-])Cc3ncc(CO)c(OC)c3C)[nH]c2c1,,"human, dried plasma spots","5 mg racemic omeprazole, with: fluvoxamine and voriconazole",,11.5 nM
CNC(=O)c1ccccc1Sc1ccc2c(/C=C/c3ccccn3)n[nH]c2c1,,"human, normal hepatic function (NCI), plasma","single dose, geometric mean, total drug",,24.6 ng/mL
C[C@H](CCC(=O)O)[C@H]1CC[C@H]2[C@@H]3[C@H](O)C[C@@H]4C[C@H](O)CC[C@]4(C)[C@H]3C[C@H](O)[C@]12C,,"human, plasma","concentration not given, endogenous control diurnal",,94.2 ± 39.9 nM
COc1cc(-c2cnc3cc(OCCN4CCOCC4)ccn23)cc2c1C(=O)N(CC(F)(F)F)CC2,LC-MS,"human, plasma","oral, 350 mg, -2 h on day 9, with: sulfasalazine 1000 mg",,928 ng/mL
C[C@H](CCC(=O)NCC(=O)O)[C@H]1CC[C@H]2[C@@H]3CC[C@@H]4C[C@H](O)CC[C@]4(C)[C@H]3C[C@H](O)[C@]12C,,"human, plasma","concentration not given, endogenous baseline diurnal",,698 ± 186 nM
CC[C@H](C)[C@@H]([C@@H](CC(=O)N1CCC[C@H]1[C@H](OC)[C@@H](C)C(=O)N[C@@H](Cc1ccccc1)C(=O)NCCCO)OC)N(C)C(=O)[C@@H](NC(=O)[C@H](C(C)C)N(C)C)C(C)C,,"human patients, plasma","intravenous, 43 mg/m², cycle 1 geometric mean",,7.94 ng/mL
CN(C)N=Nc1[nH]cnc1C(N)=O,,"human patients, plasma","intravenous, 1000 mg/m^2 over 1 h, cycle 2 day 1, co-administered with another drug",,44300 ng/mL
CC(C)c1nc(N(C)S(C)(=O)=O)nc(-c2ccc(F)cc2)c1/C=C/[C@@H](O)C[C@@H](O)CC(=O)O,,"human, plasma","oral, 10 mg, given alone",,2.2 ng/mL
O=C(O)CCC(=O)O.[2H]C([2H])([2H])Oc1cc(C)c2[nH]ccc2c1CN1CC[C@@H](C2CC2)C[C@H]1c1ccc(C(=O)O)cc1,"LC-MS/MS, geometric mean","human, plasma","50 mg, single dose, fasting",,990 ng/mL
CCn1c(=O)c(-c2cc(NC(=O)Nc3ccccc3)c(F)cc2Br)cc2cnc(NC)cc21,,"human, plasma","oral, 150 mg once daily, steady state",,728 ng/mL
CNC(=O)n1ccc2cc(Oc3ccnc(NC(=O)c4ccc(C5CCN(CCO)CC5)cc4)c3)c(OCCOC)cc21,,"healthy human, plasma","oral, 35 mg, geometric mean, with: rabeprazole 20 mg",,7.27 ng/mL
CC1(COc2ccc3c(c2)ncn3-c2ccc3cccc(N4CCC(N)CC4)c3n2)COC1,,"human patients, recurrent/progressive HGG or DIPG, serum","oral, 130 mg/m^2, day 28, median",,658 nM
NC1(C(=O)N[C@@H](CCO)c2ccc(Cl)cc2)CCN(c2nc[nH]c3nccc2-3)CC1,,"human patients, plasma","dose not given, cohort 160/320, cycle 0, geometric mean",,530 ng/mL
N#C[C@H](C[C@@H]1CCCNC1=O)NC(=O)[C@H](CC1CC1)NC(=O)c1cc2cccc(Cl)c2[nH]1,,"human, plasma","700 mg twice daily, day 5",,3780 ng/mL
COc1cc(Nc2ncc3c(n2)-c2ccc(Cl)cc2C(c2c(F)cccc2OC)=NC3)ccc1C(=O)O,,"human patients, plasma","oral, 40 mg, cycle 1 day 1, with: pembrolizumab",,688 ng/mL
CO[C@H]1C[C@@H]2CC[C@@H](C)[C@@](O)(O2)C(=O)C(=O)N2CCCC[C@H]2C(=O)O[C@H]([C@H](C)C[C@@H]2CC[C@@H](OCCO)[C@H](OC)C2)CC(=O)[C@H](C)/C=C(\C)[C@@H](O)[C@@H](OC)C(=O)[C@H](C)C[C@H](C)/C=C/C=C/C=C/1C,,"human, plasma","oral, 5 mg, cycle 1 day 1, single dosing, with: vorolanib 100 mg",,41.1 ± 24 ng/mL
C=CC(=O)NC1CCN(c2ncc3ncnc(Nc4ccc(Oc5ccc6c(c5)ncn6C)c(C)c4)c3n2)CC1,,"human, male, plasma","oral, 30 mg, fasted, adjusted geometric mean",,398 nM
N#CCNC(=O)c1ccc(-c2ccnc(Nc3ccc(N4CCOCC4=O)cc3)n2)cc1,,"healthy human volunteers, plasma","100 mg momelotinib once daily, day 7, fed, momelotinib alone",,228 ng/mL
CNC(=O)c1cc(Cl)c(OC(C)(C)C(=O)O)cc1OC[C@@H](O)CN1CCC2(CC1)Cc1cc(Cl)ccc1O2,,"healthy human, plasma","inhaled, dose not given",,8.7 nM
COc1nnc2ccc(N3CCC(c4ccc(OCCN5CCN(C)C(=O)[C@H]5C)cc4)CC3)nn12,,"human, plasma","oral, 40 mg once daily, multiple dose, monotherapy",,216 nM
Cn1c(=O)oc2ccc(-c3ccc(C[C@@H](C#N)NC(=O)[C@@H]4CNCCCO4)cc3)cc21,,"human, normal renal function, plasma","oral, 25 mg single dose, mean, fasted",,168 ng/mL
Cc1cc(Nc2cc3ncccc3c(N[C@@H]3C[C@H]4CC[C@@H](C3)N4CCC#N)n2)n[nH]1,,"human, plasma","80 mg, day 14, geometric mean",,2.28 ng/mL
O=C(Nc1cnccc1Cl)N1CCN(Cc2ccc3c(c2)OC(F)(F)O3)CC1,,"human healthy young men, plasma","oral, 75 mg once daily, day 10, multiple dose mean",,942 ng/mL
Cn1ncnc1[C@H]1c2n[nH]c(=O)c3cc(F)cc(c23)N[C@@H]1c1ccc(F)cc1,,"human patients, plasma","oral, 600 µg/m2 twice daily day 1, day 5, dose level DL4, median, with: temozolomide 30 mg/m2 daily days 2-6",,17.8 ng/mL
CC(C)NC(=O)COc1cccc(-c2nc(Nc3ccc4[nH]ncc4c3)c3ccccc3n2)c1,,"human male, plasma","oral, 200 mg, day 5, fed, alone, geometric mean",,1710 ng/mL
C[C@@H](Cn1ccc(-c2ccc(C#N)c(Cl)c2)n1)NC(=O)c1cc([C@@H](C)O)[nH]n1,,"healthy male human, plasma","intravenous infusion, 100 µg 14C-labelled, 15 min infusion, microtracer, geometric mean",,2180 pg eq/mL
CN1C(=O)[C@@H](NC(=O)c2nnc(Cc3ccccc3)[nH]2)COc2cccnc21,,"human, plasma","oral, 600 mg once daily, day 14, geometric mean",,5810 ng/mL
C[C@H](CCC(=O)NCC(=O)O)[C@H]1CC[C@H]2[C@@H]3[C@H](O)C[C@@H]4C[C@H](O[C@@H]5O[C@H](C(=O)O)[C@@H](O)[C@H](O)[C@H]5O)CC[C@]4(C)[C@H]3CC[C@]12C,,"human, plasma","concentration not given, endogenous control diurnal",,71.9 ± 19.5 nM
CC(C)(Sc1ccncc1-c1ccc(C#N)c2ccccc12)C(=O)O,,"human, plasma","oral, 5 mg once daily, with: febuxostat 10 mg",,11 ng/mL
CC(=O)O.NC(=O)c1cnc(N[C@@H]2CCCC[C@@H]2N)nc1Nc1cccc(-n2nccn2)c1,,"human, plasma","oral, 33 mg once daily",,61.4 ng/mL
CCCOc1ccc(NC(=O)CN2CCN(C)CC2)cc1-c1nc(CC)c(CC)c(=O)[nH]1,,"human, fasting, plasma","oral, 10 mg, with: alcohol 0.5 g/kg",,63.7 ± 21.5 ng/mL
COc1ccc([C@@H](O)c2cc(-c3ncnc4cc(N5CCOCC5)ccc34)c(F)cc2Cl)nn1,,"human, plasma","oral, 250 mg twice daily, single dose, geometric mean",,2340 ng/mL
C[C@H](Oc1ccc(Br)cc1-c1ccon1)C(=O)O,"LC-MS/MS, non-compartmental","human, plasma","400 mg once daily, day 10, multiple ascending dose, mean",,19600 ng/mL
Cc1ccc(C(=O)N(CCCN)C(c2nc3snc(C)c3c(=O)n2Cc2ccccc2)C(C)C)cc1 (stereo not drawn),,"human patients, plasma","intravenous, 7 mg/day, day 3 of induction course, geometric mean",,41.9 ng/mL
Nc1ncn([C@@H]2O[C@H](CO)[C@@H](O)[C@H]2O)c(=O)n1,,human,"intravenous, 100 mg/m^2, cycle 1 day 1, given alone",,1800 ng/mL
COc1ccc2nc([S@@+]([O-])Cc3ncc(C)c(OC)c3C)[nH]c2c1,,"human male, dried plasma spots","oral, 5 mg racemic omeprazole",,127 nM
N#Cc1cc(NC(=O)[C@H]2c3ccccc3C(=O)N(CC(F)(F)F)[C@@H]2c2cccnc2)ccc1F,,"human, plasma","oral, 600 mg, fed, median, interim",,1730 ng/mL
C=CC(=O)N1CCC[C@@H](n2c(=O)n(-c3ccc(Oc4ccccc4)cc3)c3c(N)nccc32)C1,,"human, fasted, plasma","oral, 240 mg, geometric mean",,65.4 ng/mL
O=C(NO)c1ccc(CN(c2cnccn2)c2cnccn2)cc1,,"human patients, phase I, plasma","oral, 800 mg twice daily, day 1",,1710 ng/mL
CC(C)=CCC/C(C)=C/CC/C(C)=C/CC[C@@](C)(O)CCC1=C(C)C(=O)C(C)=C(C)C1=O,,"healthy human, plasma","oral, 400 mg, with: itraconazole 200 mg",,3780 ng/mL
Cc1cn(C(=O)c2c(-c3c(Cl)cc(Cl)cc3Cl)noc2C(C)(C)F)c2cccc(/C=C/C(=O)O)c12,,human patients,"250 mg bid, cycle 8 day 1",,24900 ng/mL
Nc1ccn([C@@H]2O[C@H](CO)[C@@H](O)C2(F)F)c(=O)n1,HPLC-UV,"human, plasma","intravenous, 1000 mg/m^2, mean, before paricalcitol",,7250 ng/mL
N[C@]1(C(=O)O)[C@H]2[C@@H](C[C@@H]1F)[C@@H]2C(=O)O,,"human, both sexes, plasma","oral, 20 mg, fed, single dose",,59.9 ng/mL
CN(C)C(=O)c1cc2cnc(Nc3ccc(N4CCNCC4)cn3)nc2n1C1CCCC1,,"human, expansion cohort, plasma","oral, 800 mg, day 8, with: gemcitabine 1000 mg/m^2",,1990 ± 1140 ng/mL
